Published values of several laboratories.
Parts stem from different laboratories: compare values within a part only.

Study 1
Target: Sal-like protein 4, full length isoform B (SALL4, Homo sapiens, UniProt Q9UJQ4-2, residues 1-616)
Method: universal PBM
Molecule type: double-stranded DNA, one strand shown
Matrix: in vitro
Tested at: not given
Setting: 8-mer, flanks averaged, mean of replicates
Reading: higher = stronger binding
Target sequence (chain): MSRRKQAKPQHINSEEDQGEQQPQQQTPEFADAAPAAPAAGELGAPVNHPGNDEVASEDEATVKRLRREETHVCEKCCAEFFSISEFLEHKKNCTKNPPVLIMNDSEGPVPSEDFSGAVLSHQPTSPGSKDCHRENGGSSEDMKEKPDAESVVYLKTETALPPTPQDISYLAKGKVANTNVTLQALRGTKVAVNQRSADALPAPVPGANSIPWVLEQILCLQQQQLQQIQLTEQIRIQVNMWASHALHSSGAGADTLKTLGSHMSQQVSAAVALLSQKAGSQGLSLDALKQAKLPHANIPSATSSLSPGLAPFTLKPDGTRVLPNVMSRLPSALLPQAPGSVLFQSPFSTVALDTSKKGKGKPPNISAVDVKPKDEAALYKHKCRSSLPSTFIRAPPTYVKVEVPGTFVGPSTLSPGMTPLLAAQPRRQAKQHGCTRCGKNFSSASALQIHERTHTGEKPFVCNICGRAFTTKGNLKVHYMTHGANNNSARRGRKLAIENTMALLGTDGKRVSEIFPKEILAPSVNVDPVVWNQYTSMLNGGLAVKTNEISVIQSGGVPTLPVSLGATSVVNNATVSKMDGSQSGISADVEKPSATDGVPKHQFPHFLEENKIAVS
For `CAACTCTA`, the E-score was -0.0118.
`GGCATGAC` gave an E-score of -0.185.
`CCCTATAC` has an E-score of -0.0445.
The E-score of `GCCCGAGC` is reported as -0.275.

Study 2
Target: Interferon regulatory factor 7, full length, phosphomimetic (IRF7, Homo sapiens, UniProt Q92985, residues 1-503, S471D/S472D/S475D/S476D/S477D/S483D/S484D/S487D)
Chain of UniProt Q92985 (whole entry, unmodified, looked up): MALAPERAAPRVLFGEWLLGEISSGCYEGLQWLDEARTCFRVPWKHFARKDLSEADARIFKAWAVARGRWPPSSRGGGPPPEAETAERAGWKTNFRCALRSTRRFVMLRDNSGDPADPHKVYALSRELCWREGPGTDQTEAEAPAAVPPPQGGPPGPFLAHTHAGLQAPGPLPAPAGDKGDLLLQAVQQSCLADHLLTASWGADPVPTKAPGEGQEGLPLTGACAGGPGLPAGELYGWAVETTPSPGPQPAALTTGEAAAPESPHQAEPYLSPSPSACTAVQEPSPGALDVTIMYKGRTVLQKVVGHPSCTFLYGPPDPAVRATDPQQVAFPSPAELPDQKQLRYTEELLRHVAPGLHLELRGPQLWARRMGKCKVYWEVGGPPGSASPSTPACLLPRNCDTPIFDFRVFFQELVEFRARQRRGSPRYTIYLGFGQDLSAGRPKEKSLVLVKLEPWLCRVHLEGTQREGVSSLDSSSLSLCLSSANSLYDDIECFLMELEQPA
Method: protein-binding microarray
Molecule type: double-stranded DNA, one strand shown
Matrix: in vitro
Tested at: 2200 nM top
Setting: 60-bp whole probe
With: salmon DNA 0.4 mg/ml
Reference: random background probes
Reading: higher = stronger binding
For `GCCTAGCACATAGGACTGGGTTTCGGTTAGTGCTAGGTCTTGATTCGCTTGACGCTGCTG`, “fitted relative affinity” read 4.26 z-score.
Under “fitted relative affinity”, `GCCTAGCACTCGTGGATTGCGACCCCTAGGTGCTAGGTCTTGATTCGCTTGACGCTGCTG` is recorded as 0.125 z-score.
Under “fitted relative affinity”, `GCCTAGCACTTAGATATCAGTTTAGATTAGTGCTAGGTCTTGATTCGCTTGACGCTGCTG` is recorded as 0.0192 z-score.
Under “fitted relative affinity”, `GCCTAGCACGACGGTCTCGGTTACGGGACGTGCTAGGTCTTGATTCGCTTGACGCTGCTG` is recorded as -0.0641 z-score.

Study 3
Target: Histone acetyltransferase KAT6A, winged helix 2, GST fusion (KAT6A, Homo sapiens, UniProt Q92794, residues 85-181)
Method: protein binding microarray
Molecule type: double-stranded DNA, one strand shown
Matrix: in vitro
Tested at: not given
Setting: 8-mer, flanks averaged, mean of 2 arrays, mostly near background
Reference: not given
Reading: higher = stronger binding
Target sequence (chain): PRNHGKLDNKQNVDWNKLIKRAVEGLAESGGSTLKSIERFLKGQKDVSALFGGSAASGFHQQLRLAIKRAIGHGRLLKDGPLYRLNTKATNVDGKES
`GGAAACAA` gave an E-score of -0.00885.
With `GTTCCCAA` the E-score was 0.0826.
`CCACTTCA` has an E-score of 0.0572.

Mixed results
`PhoQ, residues 284 288 289 292 302 303 SLANKL` has a fold induction of 5.81 (PhoP, residues 12 14 15 18 19 NMSFL (Escherichia coli, UniProt P23836); Sort-seq, measured: YFP reporter; E. coli; PhoQ-PhoP variant library, with: 10 µM Mg2+; reference: high Mg2+ state, higher = stronger signaling).

For quick reference, copied from above (study 3):
With `GTTCCCAA` the E-score was 0.0826.
`CCACTTCA` has an E-score of 0.0572.
